{"data": "Published values from different studies", "technique": "steady-state kinetics", "B1": "enzyme (Arabidopsis thaliana, UniProt Q9FJN8); chain TSGGGYGDPSQKIDYVFKVVLIGDSAVGKSQILARYARDEFSLDSKATIGVEFQTRTLVIDHKSVKAQIWDTAGQERYRAVTSAYYRGAVGAMLVYDITRRQTFDHIPRWLEELRAHADKNIVIILIGNKSDLVDQRAIPTEDAKEFAEKEGLFFLETSAFNATNVESAFSTVLTEIFNIVNKKSLAASEDQENGNPGSLAGKKIDIVPGPGQVIPNKSNMCCNS", "B2": "aspC A106G/A17N/A218G/A278L/A281T/A8Q/D18E/F210I/F212I/F350Y/G15S/G249S/I187A/I279A/I29V/I33V/I341V/I5L/I68L/I71L/L46M/M321L/M380L/N285S/N30D/N64T/S129T/S135A/S273G/S351L/T100S/V125I/V136I/V375I/Y244C (Escherichia coli, UniProt P00509); chain MFENLTAQPADPILSLNELFRADERPGKVDLGVGVYKDETGKTPVMTSVKKAEQYLLENETTKTYLGLDGLPEFGRCTQELLFGKGSALINDKRARTAQSPGGTGGLRVAADFLAKNTSVKRVWISNPTWPNHKAIFNSAGLEVREYAYYDAENHTLDFDALINSLNEAQAGDVVLFHGCCHNPTGADPTLEQWQTLAQLSVEKGWLPLIDIAYQGFGRGLEEDAEGLRAFAAMHKELIVASSCSKNFSLYNERVGACTLVAADSETVDRAFGQMKALARTNYSSPPAHGASVVATILSNDALRAIWEQELTDMRQRIQRLRQLFVNTLQEKGANRDFSFVIKQNGMFSYLGLTKEQVLRLREEFGVYAVASGRINVAGLTPDNMAPLCEAIVAVL", "B3": "enzyme C74S (UniProt A0A0P0CH59); chain MRIALFSDIHANLPALEAVLANMETQQLDAIYCLGDLVGYAPWPNEVVAEIRKRRIPTIAGNYDEGVGLWSPNSGCAYKTDTEKDLGQQSIDFTNNVVTEETRKYLRMLPRQLRLTFMDGSKEENKIELLLVHGSPRKINEYLFEDRPEKSFLKMMEEANADLLFFGHTHKPYHRAMPYEHEGQTRYRHAINIGSVGKPKDGDPRTGYVVVELTPESSLTQKDSIKVEFIRVPYDVETAAQAVEASPLPNEFAQMLRTA", "B4": "enzyme (Castanea crenata, UniProt P82859); chain MEEFLTVGLWGGEGGDRWSFVVNNGGIIGMEIVHANGIASITFKCGDEYGVLQHSRKFGGTGEGWKTDKISLNWPEEYLTSISGTVADLWQHIIIRSISFKTNKGTEYGPYGVVTGQPFSYSTEGGVIVGFHGRSGTLLDAIGAYVKIPQKKDNTLKMALPVPRGPGPWGGHGGMEWDDGVFPAIRELHLYVGDSVIHAIRVSYQSKDGEPLLSPKHGGEGGEPIDPIKLEVSKEFLIRIAGFYGPVEGSGSFKALRSITFYTNKAKYGPYGDEIGQAFTSSVAPGRVVGFHGRSGAYLDAIGVHMEYF", "B5": "PYCR2 R119C (Homo sapiens, UniProt Q96C36); chain MSVGFIGAGQLAYALARGFTAAGILSAHKIIASSPEMNLPTVSALRKMGVNLTRSNKETVKHSDVLFLAVKPHIIPFILDEIGADVQARHIVVSCAAGVTISSVEKKLMAFQPAPKVICCMTNTPVVVQEGATVYATGTHALVEDGQLLEQLMSSVGFCTEVEEDLIDAVTGLSGSGPAYAFMALDALADGGVKMGLPRRLAIQLGAQALLGAAKMLLDSEQHPCQLKDNVCSPGGATIHALHFLESGGFRSLLINAVEASCIRTRELQSMADQEKISPAALKKTLLDRVKLESPTVSTLTPSSPGKLLTRSLALGGKKD", "B6": "enzyme (Trypanosoma brucei, UniProt Q9GV41); chain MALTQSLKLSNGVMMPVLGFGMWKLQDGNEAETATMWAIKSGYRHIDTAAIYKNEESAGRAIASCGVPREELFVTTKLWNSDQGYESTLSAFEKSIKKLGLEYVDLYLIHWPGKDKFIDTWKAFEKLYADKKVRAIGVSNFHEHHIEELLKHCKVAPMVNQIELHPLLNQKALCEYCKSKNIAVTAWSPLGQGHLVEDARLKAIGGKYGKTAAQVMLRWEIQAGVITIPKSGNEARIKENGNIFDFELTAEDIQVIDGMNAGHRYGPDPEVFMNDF", "B7": "UGT1A4 (Homo sapiens, UniProt P22310); chain GKVLVVPTDGSPWLSMREALRELHARGHQAVVLTPEVNMHIKEEKFFTLTAYAVPWTQKEFDRVTLGYTQGFFETEHLLKRYSRSMAIMNNVSLALHRCCVELLHNEALIRHLNATSFDVVLTDPVNLCGAVLAKYLSIPAVFFWRYIPCDLDFKGTQCPNPSSYIPKLLTTNSDHMTFLQRVKNMLYPLALSYICHTFSAPYASLASELFQREVSVVDLVSYASVWLFRGDFVMDYPRPIMPNMVFIGGINCANGKPLSQEFEAYINASGEHGIVVFSLGSMVSEIPEKKAMAIADALGKIPQTVLWRYTGTRPSNLANNTILVKWLPQNDLLGHPMTRAFITHAGSHGVYESICNGVPMVMMPLFGDQMDNAKRMETKGAGVTLNVLEMTSEDLENALKAVINDKSYKENIMRLSSLHKDRPVEPLDLAVFWVEFVMRHKGAPHLRPAAHDLTWYQYHSLDVIGFLLAVVLTVAFITFKCCAYGYRKCLGKKGRVKKAHKSKTH", "B8": "hpaB (Escherichia coli, UniProt Q57160); chain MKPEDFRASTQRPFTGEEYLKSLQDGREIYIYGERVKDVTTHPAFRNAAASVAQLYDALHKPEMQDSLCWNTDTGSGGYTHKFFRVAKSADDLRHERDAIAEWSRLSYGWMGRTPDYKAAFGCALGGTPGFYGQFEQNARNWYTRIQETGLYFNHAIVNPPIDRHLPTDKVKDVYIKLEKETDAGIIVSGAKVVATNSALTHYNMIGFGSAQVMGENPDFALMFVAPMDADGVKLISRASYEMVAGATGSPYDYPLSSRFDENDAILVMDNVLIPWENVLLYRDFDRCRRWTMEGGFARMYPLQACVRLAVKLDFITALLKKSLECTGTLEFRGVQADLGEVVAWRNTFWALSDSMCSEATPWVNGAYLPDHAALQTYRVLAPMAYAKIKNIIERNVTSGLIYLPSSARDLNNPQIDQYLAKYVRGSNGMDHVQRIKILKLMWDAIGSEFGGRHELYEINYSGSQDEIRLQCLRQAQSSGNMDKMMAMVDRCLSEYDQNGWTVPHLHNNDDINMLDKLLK", "B9": "enzyme (Glycine max, UniProt I1LJ26); chain MMELFLSCMVLFVLTLATLGAHWIWVVSSSRAGSKLPPGPFPLPIIGNLLALGKKPHQSLAKLAETHGPIMTLKFGQVTTIVVSSADMAKEVLLTHDHSLSSNRVIPQAVQVHNHHNHSITFLPVSPLWRDLRKICIANLFSNKTLDASQDLRRSKLHQLLHDIHRSSLAGEAVDVGKAVFNTSMNLLSNTFFSLDLVHSSSSAAAVDFKDLVLKIMEESGKPNLADFFPVLKFMDPQGIKTRTTVYTGKIIDTFRALIHQRLKLRENNHGHDTNNDMLNTLLNCQEMDQTKIEHLALTLFVAGTDTITSTVEWAMAELLQNEKAMSKAKQELEETIGRGKAVEESDIGRLPYLQAVIKETFRLHPAVPFLIPRKANADVEISGGYTIPKDAQVFVNVWAIGRNSSIWKNNANVFSPERFLMDSEDIDVKGHSFELTPFGAGRRICLGLPLAMRMLYLVLGSLINCFNWKLVEDDDVMNMEDSFGITLAKAQPVILIPEKVHGVIVS", "B10": "enzyme T339A (Arabidopsis thaliana, UniProt Q9LJK1); chain EKCQEWLERVDSVTYSRDFTKDPIFISGSNKDFKSCSVDCVMGFTSDKKPDAAFGLSHQPGTLSIIRSMESAQYYQENNLAQARRKGYDIVMTTSLSSDVPVGYFSWAEYDIMAPVQPKTEKALAAAFISNCAARNFRLQALEALMKTNVKIDSYGGCHRNRDGSVEKVEALKHYKFSLAFENTNEEDYVTEKFFQSLVAGSVPVVVGAPNIEEFAPSPDSFLHIKQMDDVKAVAKKMKYLADNPDAYNQALRWKHEGPSDSFKALIDMAAVHSSCRLCIFVATRIREQEEKSPEFKRRPCKCTRGSETVYHLYVRERGRFDMESIFLKDGNLTLEALESAVLAKFMSLRYEPIWKKERPASLRGDGKLRVHGIYPIGLTQRQALYNFKFEGNSSLSTHIQRNPCPKFEVVFV", "note": "Compare with care: the assays were run in different laboratories.", "UniProt Q9S7E4, sequence (whole entry, unmodified, looked up)": "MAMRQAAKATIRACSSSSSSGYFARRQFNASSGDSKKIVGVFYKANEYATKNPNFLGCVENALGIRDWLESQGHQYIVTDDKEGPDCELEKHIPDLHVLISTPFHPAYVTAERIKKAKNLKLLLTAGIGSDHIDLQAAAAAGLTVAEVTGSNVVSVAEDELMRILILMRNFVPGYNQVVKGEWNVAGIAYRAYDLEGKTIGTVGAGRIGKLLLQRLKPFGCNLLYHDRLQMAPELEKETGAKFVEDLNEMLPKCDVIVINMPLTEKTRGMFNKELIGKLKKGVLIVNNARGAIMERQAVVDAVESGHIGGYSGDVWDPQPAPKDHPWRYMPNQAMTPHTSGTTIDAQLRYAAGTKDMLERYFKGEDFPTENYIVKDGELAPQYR", "UniProt Q9Y6L6, sequence (whole entry, looked up)": "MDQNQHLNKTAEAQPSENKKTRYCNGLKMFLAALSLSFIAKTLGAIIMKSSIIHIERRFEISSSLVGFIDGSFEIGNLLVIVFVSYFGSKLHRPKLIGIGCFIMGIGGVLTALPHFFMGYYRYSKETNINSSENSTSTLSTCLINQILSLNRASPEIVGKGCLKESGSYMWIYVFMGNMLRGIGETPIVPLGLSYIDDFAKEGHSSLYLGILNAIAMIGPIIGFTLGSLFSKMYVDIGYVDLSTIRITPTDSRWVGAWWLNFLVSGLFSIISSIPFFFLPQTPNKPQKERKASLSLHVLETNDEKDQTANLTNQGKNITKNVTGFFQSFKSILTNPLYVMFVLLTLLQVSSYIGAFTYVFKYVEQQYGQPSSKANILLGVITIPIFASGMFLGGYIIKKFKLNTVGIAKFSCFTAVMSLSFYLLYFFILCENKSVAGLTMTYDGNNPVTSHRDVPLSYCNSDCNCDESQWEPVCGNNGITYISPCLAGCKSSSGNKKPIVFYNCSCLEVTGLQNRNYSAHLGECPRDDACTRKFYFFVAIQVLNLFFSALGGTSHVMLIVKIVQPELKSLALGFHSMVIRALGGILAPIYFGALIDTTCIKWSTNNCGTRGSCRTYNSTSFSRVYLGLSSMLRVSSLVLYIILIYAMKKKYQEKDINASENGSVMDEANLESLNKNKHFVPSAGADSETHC", "UniProt Q09472, sequence (whole entry, looked up)": "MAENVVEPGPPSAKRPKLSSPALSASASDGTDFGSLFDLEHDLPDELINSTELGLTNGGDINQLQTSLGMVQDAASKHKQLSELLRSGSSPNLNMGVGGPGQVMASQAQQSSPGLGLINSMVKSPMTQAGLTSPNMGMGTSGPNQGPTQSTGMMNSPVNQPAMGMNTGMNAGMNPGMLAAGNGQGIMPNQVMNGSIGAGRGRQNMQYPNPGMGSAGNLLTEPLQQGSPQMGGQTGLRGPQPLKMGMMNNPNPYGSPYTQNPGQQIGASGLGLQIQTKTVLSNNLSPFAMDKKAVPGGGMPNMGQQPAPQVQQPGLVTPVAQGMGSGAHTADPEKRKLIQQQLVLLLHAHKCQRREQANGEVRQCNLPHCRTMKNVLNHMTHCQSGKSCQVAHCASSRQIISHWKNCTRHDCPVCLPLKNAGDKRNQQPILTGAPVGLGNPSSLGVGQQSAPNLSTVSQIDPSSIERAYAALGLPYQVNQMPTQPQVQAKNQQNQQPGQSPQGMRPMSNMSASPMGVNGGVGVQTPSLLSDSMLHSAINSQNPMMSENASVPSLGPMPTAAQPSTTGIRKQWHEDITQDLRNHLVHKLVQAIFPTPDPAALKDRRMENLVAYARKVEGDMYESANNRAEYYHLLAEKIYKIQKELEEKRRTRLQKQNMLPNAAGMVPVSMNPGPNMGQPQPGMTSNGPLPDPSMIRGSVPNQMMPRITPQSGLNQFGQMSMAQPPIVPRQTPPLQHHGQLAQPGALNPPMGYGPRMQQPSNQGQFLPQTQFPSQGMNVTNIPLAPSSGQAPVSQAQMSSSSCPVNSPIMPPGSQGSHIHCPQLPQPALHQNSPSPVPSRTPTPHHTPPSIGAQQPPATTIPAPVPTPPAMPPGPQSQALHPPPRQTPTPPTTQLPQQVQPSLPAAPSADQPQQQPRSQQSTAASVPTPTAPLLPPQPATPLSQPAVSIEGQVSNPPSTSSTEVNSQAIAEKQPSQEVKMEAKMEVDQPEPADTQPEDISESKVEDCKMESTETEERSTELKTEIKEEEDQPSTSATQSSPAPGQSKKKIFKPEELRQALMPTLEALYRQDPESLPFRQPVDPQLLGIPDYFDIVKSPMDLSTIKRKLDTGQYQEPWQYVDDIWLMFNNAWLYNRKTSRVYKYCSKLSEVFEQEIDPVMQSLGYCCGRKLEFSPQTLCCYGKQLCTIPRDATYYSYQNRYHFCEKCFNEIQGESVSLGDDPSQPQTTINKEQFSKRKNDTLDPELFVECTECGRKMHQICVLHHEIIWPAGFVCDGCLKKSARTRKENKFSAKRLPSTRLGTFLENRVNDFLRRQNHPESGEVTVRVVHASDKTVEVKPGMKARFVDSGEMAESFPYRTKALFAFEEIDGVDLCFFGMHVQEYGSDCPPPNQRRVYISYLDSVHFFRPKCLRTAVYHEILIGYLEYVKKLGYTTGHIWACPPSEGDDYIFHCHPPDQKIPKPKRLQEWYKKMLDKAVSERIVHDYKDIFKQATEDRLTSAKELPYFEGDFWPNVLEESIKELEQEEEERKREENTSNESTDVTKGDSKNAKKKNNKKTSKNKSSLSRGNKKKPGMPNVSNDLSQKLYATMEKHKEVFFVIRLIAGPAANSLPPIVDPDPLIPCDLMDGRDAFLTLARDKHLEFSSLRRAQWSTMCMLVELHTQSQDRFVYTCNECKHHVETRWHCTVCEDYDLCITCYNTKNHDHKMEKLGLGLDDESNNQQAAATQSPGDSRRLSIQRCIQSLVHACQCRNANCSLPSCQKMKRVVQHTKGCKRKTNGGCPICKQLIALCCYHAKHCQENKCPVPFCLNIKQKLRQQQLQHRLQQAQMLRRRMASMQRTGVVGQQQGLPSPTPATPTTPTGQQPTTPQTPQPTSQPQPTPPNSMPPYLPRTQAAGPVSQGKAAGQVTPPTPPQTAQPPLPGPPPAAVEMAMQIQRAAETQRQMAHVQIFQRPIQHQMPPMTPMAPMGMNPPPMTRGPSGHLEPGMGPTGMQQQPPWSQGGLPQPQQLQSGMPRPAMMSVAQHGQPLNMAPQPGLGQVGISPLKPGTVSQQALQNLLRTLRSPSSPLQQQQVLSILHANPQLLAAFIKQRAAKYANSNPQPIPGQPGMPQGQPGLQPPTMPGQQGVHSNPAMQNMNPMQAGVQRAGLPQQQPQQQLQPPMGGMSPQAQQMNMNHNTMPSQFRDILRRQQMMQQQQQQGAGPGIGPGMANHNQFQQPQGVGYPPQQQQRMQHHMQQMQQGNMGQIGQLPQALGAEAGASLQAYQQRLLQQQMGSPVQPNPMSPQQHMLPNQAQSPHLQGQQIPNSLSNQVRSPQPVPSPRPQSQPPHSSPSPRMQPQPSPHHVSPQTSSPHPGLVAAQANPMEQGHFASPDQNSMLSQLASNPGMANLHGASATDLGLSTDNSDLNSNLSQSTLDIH", "UniProt P78804, sequence (whole entry, looked up)": "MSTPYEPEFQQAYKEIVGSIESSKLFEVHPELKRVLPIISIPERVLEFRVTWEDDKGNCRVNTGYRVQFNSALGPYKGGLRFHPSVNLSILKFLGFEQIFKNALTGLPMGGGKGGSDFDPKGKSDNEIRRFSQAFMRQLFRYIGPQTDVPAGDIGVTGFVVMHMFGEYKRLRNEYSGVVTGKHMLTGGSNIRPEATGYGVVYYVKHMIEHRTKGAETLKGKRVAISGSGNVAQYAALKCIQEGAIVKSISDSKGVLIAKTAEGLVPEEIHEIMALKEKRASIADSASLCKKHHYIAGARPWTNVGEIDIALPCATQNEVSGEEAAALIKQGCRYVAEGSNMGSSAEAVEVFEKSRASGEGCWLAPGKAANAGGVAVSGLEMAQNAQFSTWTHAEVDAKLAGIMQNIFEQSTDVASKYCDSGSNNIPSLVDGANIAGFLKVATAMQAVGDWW"}
{"Molecule": "enzyme K46A (Homo sapiens, UniProt Q08623)", "substrate": "O=c1[nH]cc([C@@H]2O[C@H](COP(=O)(O)O)[C@@H](O)[C@H]2O)c(=O)[nH]1", "setting": "pH 7, 25 °C", "Km [µM]": 66}
{"Molecule": "B1 (enzyme)", "substrate": "Nc1nc2c(ncn2[C@@H]2O[C@H](COP(=O)(O)OP(=O)(O)OP(=O)(O)O)[C@@H](O)[C@H]2O)c(=O)[nH]1", "setting": "pH 7.5, 30 °C", "Km [µM]": 6240}
{"Molecule": "gdh N192L (Bacillus subtilis)", "substrate": "NC(=O)c1ccc[n+]([C@@H]2O[C@H](COP(=O)(O)OP(=O)(O)OC[C@H]3O[C@@H](n4cnc5c(N)ncnc54)[C@H](O)[C@@H]3O)[C@@H](O)[C@H]2O)c1", "setting": "pH 7, 40 °C", "Km [µM]": 1200}
{"Molecule": "EP300 (Homo sapiens, UniProt Q09472)", "substrate": "CC(=O)SCCNC(=O)CCNC(=O)[C@H](O)C(C)(C)COP(=O)(O)OP(=O)(O)OC[C@H]1O[C@@H](n2cnc3c(N)ncnc32)[C@H](O)[C@@H]1OP(=O)(O)O", "Km [µM]": 4.3}
{"Molecule": "B2", "substrate": "N[C@@H](Cc1ccccc1)C(=O)O", "setting": "pH 7.5, 25 °C, together with: PMP 20 µM", "Km [µM]": 1200}
{"Molecule": "enzyme (UniProt A0A097IUE6)", "substrate": "O=C(O)O", "setting": "pH 6.5, 25 °C", "Km [µM]": 6690}
{"Molecule": "SLCO1B1 (Homo sapiens, UniProt Q9Y6L6)", "substrate": "C=C[C@@H]1C[C@]1(NC(=O)[C@@H]1C[C@@H]2CN1C(=O)[C@H](C(C)(C)C)NC(=O)O[C@@H]1C[C@H]1CCCCCc1nc3ccc(OC)cc3nc1O2)C(=O)NS(=O)(=O)C1CC1", "setting": "pH 7.4, 37 °C", "Km [µM]": 0.17}
{"Molecule": "enzyme (Schizosaccharomyces pombe, UniProt P78804)", "substrate": "NC(=O)C1=CN([C@@H]2O[C@H](COP(=O)(O)OP(=O)(O)OC[C@H]3O[C@@H](n4cnc5c(N)ncnc54)[C@H](O)[C@@H]3O)[C@@H](O)[C@H]2O)C=CC1", "setting": "pH 7, 30 °C, apparent", "Km [µM]": 57000}
{"Molecule": "FDH1 (Arabidopsis thaliana, UniProt Q9S7E4)", "substrate": "O=CO", "setting": "pH 7.5, 30 °C", "Km [µM]": 4110}
{"Molecule": "B3 (enzyme C74S)", "substrate": "O=[N+]([O-])c1ccc(OP(=O)(O)O)cc1", "setting": "pH 7, 37 °C, together with: Ni2+ 0.25 mM", "Km [µM]": 13700}
{"Molecule": "B4 (enzyme)", "substrate": "CCCCCCCCCCCCCCCC(=O)Oc1ccc([N+](=O)[O-])cc1", "setting": "pH 8, 35 °C", "Km [µM]": 110}
{"Molecule": "HNL E79H/H103V/K236M/T11G (Hevea brasiliensis)", "substrate": "CC(=O)Oc1ccc([N+](=O)[O-])cc1", "setting": "pH 7.2, 22 °C", "Km [µM]": 650}
{"Molecule": "B5 (PYCR2 R119C)", "substrate": "O=C(O)[C@@H]1CCC=N1", "setting": "pH 7.5, 37 °C, apparent, together with: NADH 500 µM", "Km [µM]": 317}
{"Molecule": "enzyme (Pseudomonas syringae, UniProt Q87XD5)", "substrate": "NC(N)=O", "setting": "together with: MgATP", "Km [µM]": 4900}
{"Molecule": "B6 (enzyme)", "substrate": "O=Cc1ccc([N+](=O)[O-])cc1", "setting": "pH 7, 37 °C, together with: NADPH 100 µM", "Km [µM]": 0.8}
{"Molecule": "B7 (UGT1A4)", "substrate": "CN1CCN(CCCN2c3ccccc3Sc3ccc(C(F)(F)F)cc32)CC1", "setting": "37 °C, not purified", "Km [µM]": 12}
{"Molecule": "enzyme (Pseudomonas aeruginosa, UniProt Q9HTP2)", "substrate": "N=C(N)NCCCC=O", "setting": "pH 8, 30 °C", "Km [µM]": 200}
{"Molecule": "B8 (hpaB)", "substrate": "O=C(O)/C=C/c1ccc(O)cc1", "setting": "pH 8, 37 °C", "Km [µM]": 465}
{"Molecule": "B9 (enzyme)", "substrate": "O=c1c(-c2ccc(O)cc2)coc2cc(O)ccc12", "setting": "pH 7, 28 °C, not purified, together with: MnCl2 10 mM", "Km [µM]": 7.49}
{"Molecule": "B10 (enzyme T339A)", "substrate": "C[C@@H]1O[C@H](OP(=O)(O)OP(=O)(O)OC[C@H]2O[C@@H](n3cnc4c(=O)[nH]c(N)nc43)[C@H](O)[C@@H]2O)[C@@H](O)[C@H](O)[C@@H]1O", "setting": "pH 6.5, 30 °C", "Km [µM]": 360}
{"note": "Excerpt of the above:"}
{"Molecule": "B6 (enzyme)", "substrate": "O=Cc1ccc([N+](=O)[O-])cc1", "setting": "pH 7, 37 °C, together with: NADPH 100 µM", "Km [µM]": 0.8}
{"Molecule": "gdh N192L (Bacillus subtilis)", "substrate": "NC(=O)c1ccc[n+]([C@@H]2O[C@H](COP(=O)(O)OP(=O)(O)OC[C@H]3O[C@@H](n4cnc5c(N)ncnc54)[C@H](O)[C@@H]3O)[C@@H](O)[C@H]2O)c1", "setting": "pH 7, 40 °C", "Km [µM]": 1200}
